Assay results collected from several papers.
Compare with care: the assays were run in different laboratories. Values joined by “and” are separate records of one study, mostly repeats; a detail may differ.
PRMT5: Protein arginine N-methyltransferase 5 (PRMT5, Homo sapiens, UniProt O14744)
UniProt O14744, sequence (whole entry, looked up): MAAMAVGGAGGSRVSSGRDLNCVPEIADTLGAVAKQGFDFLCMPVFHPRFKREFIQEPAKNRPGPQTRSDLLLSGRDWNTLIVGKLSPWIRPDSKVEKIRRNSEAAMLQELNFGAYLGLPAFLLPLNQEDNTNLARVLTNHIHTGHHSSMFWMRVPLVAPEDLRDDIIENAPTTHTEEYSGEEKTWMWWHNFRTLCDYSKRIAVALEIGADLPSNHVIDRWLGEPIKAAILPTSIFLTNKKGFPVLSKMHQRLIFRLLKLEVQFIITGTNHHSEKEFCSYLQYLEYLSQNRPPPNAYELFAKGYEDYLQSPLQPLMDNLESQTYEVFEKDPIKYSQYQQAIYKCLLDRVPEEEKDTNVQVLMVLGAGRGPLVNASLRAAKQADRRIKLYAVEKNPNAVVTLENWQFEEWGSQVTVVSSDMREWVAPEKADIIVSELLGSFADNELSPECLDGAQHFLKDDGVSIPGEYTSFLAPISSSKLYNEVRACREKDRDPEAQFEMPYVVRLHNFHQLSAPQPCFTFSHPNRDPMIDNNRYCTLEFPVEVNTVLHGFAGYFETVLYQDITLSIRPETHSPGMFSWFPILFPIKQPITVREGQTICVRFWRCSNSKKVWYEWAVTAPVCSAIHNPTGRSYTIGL
IL1RL2: Interleukin-1 receptor-like 2 (IL1RL2, Homo sapiens, UniProt Q9HB29)
UniProt Q9HB29, sequence (whole entry, looked up): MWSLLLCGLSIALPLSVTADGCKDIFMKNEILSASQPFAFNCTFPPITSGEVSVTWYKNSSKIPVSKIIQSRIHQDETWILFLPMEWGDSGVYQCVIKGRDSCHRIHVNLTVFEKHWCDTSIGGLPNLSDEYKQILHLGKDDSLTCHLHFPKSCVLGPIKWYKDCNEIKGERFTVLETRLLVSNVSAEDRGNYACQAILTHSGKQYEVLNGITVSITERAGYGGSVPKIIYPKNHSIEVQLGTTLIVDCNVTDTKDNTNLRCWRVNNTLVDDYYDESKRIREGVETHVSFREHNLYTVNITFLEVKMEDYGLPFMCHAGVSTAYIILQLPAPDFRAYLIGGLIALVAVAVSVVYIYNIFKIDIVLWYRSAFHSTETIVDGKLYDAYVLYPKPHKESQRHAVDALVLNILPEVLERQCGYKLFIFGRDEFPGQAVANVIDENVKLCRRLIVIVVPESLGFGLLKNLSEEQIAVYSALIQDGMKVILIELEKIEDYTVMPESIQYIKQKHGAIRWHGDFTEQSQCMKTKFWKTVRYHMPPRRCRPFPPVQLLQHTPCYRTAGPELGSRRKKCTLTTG
MAPK8: Mitogen-activated protein kinase 8 (MAPK8, Homo sapiens, UniProt P45983)
UniProt P45983, sequence (whole entry, looked up): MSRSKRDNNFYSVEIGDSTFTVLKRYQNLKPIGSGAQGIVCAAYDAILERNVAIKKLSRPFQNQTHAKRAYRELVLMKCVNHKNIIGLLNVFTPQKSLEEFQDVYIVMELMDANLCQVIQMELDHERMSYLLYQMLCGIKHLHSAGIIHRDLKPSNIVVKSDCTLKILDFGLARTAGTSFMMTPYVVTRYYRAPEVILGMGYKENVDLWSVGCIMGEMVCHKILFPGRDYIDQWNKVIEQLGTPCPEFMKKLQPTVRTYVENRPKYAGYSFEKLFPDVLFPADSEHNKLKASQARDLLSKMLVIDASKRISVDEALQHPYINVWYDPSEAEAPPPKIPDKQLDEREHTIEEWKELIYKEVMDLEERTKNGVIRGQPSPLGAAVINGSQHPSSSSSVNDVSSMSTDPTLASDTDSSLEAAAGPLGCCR
UniProt O75417, sequence (whole entry, looked up): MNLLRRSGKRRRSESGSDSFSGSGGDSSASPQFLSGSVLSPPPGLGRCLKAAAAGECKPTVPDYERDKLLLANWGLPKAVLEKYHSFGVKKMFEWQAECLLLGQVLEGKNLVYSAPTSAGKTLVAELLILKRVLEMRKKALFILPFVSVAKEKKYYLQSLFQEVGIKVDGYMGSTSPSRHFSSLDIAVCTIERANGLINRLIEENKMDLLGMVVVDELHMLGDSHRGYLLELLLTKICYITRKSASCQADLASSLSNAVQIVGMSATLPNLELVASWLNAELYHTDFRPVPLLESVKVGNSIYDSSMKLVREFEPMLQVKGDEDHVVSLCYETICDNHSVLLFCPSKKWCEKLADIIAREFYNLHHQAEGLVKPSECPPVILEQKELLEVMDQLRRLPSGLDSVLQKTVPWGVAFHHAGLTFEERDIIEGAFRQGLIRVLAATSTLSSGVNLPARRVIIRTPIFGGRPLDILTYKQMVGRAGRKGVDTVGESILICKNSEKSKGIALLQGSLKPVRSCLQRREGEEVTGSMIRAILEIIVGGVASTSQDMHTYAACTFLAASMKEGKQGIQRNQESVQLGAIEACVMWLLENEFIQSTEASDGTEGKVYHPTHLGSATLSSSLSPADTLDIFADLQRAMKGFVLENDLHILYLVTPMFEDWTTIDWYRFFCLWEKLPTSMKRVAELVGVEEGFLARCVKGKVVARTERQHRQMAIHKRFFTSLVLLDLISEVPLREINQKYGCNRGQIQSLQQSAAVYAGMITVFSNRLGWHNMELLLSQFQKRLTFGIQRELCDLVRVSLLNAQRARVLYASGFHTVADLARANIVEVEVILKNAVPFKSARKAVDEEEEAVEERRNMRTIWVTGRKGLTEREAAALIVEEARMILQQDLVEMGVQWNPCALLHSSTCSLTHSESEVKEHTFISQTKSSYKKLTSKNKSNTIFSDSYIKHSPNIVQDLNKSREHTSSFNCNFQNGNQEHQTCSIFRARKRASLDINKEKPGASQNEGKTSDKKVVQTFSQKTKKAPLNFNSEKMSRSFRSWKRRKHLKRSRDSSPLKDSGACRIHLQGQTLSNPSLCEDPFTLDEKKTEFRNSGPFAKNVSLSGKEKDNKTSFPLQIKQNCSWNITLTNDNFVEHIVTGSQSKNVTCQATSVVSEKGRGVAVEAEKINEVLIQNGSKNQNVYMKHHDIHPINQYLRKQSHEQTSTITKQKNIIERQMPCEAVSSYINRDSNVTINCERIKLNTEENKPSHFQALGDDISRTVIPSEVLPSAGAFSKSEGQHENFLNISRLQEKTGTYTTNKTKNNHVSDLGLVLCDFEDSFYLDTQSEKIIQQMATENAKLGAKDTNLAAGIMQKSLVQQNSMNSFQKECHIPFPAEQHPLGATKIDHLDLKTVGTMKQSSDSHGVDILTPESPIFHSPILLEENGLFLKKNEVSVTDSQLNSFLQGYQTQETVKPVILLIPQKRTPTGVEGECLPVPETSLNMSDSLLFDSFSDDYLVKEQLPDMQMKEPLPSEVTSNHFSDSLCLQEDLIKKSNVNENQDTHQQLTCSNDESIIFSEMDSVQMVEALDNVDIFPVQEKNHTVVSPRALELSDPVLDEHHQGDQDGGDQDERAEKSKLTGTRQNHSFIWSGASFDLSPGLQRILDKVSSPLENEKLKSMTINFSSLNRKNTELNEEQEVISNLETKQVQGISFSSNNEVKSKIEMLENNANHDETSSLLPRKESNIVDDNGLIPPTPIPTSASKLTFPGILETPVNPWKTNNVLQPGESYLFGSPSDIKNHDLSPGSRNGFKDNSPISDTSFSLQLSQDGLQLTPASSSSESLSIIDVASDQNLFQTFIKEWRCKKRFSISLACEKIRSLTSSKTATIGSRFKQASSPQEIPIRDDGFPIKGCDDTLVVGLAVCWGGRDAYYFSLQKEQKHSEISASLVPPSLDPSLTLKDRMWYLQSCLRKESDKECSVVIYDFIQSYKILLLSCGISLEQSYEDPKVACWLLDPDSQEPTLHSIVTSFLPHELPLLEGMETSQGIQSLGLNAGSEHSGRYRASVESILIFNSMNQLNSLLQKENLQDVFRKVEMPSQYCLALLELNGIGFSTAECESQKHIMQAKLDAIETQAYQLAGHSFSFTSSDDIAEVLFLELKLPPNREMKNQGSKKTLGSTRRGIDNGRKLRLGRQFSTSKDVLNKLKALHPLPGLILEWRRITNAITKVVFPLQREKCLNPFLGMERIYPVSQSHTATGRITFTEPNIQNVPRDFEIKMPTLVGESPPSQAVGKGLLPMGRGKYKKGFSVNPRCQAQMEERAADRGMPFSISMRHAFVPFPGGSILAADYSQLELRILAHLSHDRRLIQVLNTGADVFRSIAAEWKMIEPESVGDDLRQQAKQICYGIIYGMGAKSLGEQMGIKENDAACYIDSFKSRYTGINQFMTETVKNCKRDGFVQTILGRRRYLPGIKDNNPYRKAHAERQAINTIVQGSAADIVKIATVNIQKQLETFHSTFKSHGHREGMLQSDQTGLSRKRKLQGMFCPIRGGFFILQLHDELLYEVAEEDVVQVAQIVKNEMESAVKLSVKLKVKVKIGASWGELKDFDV
UniProt P78536, sequence (whole entry, looked up): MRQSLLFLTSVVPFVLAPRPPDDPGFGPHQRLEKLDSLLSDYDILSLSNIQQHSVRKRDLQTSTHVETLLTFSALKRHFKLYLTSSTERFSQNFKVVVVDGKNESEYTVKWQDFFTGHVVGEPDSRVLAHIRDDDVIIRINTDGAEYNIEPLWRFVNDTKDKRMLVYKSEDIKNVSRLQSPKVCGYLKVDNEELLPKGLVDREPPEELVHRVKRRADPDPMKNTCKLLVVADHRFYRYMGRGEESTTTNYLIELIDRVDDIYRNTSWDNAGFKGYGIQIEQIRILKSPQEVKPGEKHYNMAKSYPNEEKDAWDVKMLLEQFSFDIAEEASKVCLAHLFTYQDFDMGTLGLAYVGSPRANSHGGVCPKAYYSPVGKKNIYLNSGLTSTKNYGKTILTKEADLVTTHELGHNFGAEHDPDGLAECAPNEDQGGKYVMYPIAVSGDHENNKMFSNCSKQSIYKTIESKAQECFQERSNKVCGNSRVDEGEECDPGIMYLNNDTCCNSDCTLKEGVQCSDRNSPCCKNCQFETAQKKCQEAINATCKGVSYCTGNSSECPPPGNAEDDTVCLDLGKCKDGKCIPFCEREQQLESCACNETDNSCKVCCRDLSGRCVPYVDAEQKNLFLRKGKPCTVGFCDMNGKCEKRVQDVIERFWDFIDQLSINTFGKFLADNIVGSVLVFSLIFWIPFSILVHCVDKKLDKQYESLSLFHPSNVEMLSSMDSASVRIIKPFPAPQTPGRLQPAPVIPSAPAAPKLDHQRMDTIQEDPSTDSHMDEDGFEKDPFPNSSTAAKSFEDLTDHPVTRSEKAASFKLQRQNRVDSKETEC

SMILES	target	test	system	setting	how to read	remaining activity
COc1ccccc1-c1ccncc1C(=O)Nc1nnc(OCc2ccc(Cl)cc2)s1	DNA polymerase theta, helicase domain (POLQ, Homo sapiens, UniProt O75417)	ATPase activity, ADP-Glo	–	0.015 µM	reference: 0 µM cpd	56%
N=C(N)c1ccc(-c2ccc(-c3ccc(C(=N)N)cn3)o2)nc1	PRMT5	enzyme activity, inhibitor, radiometric	–	20 µM	–	51%
CC(C)[C@@H]1NC(=O)[C@H](Cc2ccccc2)NC(=O)CSC[C@@H](C(N)=O)NC(=O)[C@H](CCC(=O)O)NC(=O)[C@H](CO)NC(=O)[C@H](Cc2c[nH]c3cccc(Cl)c23)NC(=O)[C@H](C2CCCCC2)NC(=O)[C@H](C(C)C)NC(=O)[C@H](Cc2ccc(O)cc2)NC(=O)[C@H](CC(=O)O)NC(=O)[C@H](Cc2c[nH]c3ccccc23)NC(=O)[C@H](Cc2ccc(N)nc2)NC(=O)[C@H](Cc2c[nH]c3ccc(Cl)cc23)NC(=O)[C@H](CCC(=O)O)NC1=O	IL1RL2	reporter gene (SEAP), inhibitor, HEK-Blue IL-36R reporter	HEK-Blue IL-36R cells	0.046 µM, 6 h, together with: IL-36γ 10 ng/mL	–	101%
N=C(N)c1ccc(-c2cncc(-c3ccc(C(=N)N)cc3)n2)cc1	PRMT5	enzyme activity, inhibitor, radiometric	–	20 µM	–	52.4%
COC(=O)c1ccc2c(c1)nc(NC(=O)c1ccccc1)n2CCCc1ccccc1	HDAC2 (Homo sapiens, UniProt Q92769)	enzyme activity, inhibitor	–	10 µM	–	85%
C=C1C[C@@]2(C(=O)OC)C=C(C(=O)Nc3cccc(C(=O)Nc4ccc(Nc5nccc(-c6cccnc6)n5)c(C)c4)c3)C(=O)[C@@H]1C2	MAPK8	kinase activity, inhibitor	–	0.02032 µM, unit not given, together with: 10 mM glutathione	reference: no inhibitor	0.823
COC(=O)c1cc2cc3c(cc2oc1=O)N(CC(=O)NC(Cc1cccc(Cl)c1)C(=O)NCC=CS(=O)(=O)c1ccccc1)CCC3 (stereo not shown)	Cathepsin B (CTSB, Homo sapiens, UniProt P07858)	inhibitor	–	5 µM, 60 min, together with: Z-Arg-Arg-pNA	reference: uninhibited control	13%
COC(=O)[C@@]1(C)C=C(C(=O)Nc2cccc(C(=O)Nc3ccc(Nc4nccc(-c5cccnc5)n4)c(C)c3)c2)C(=O)CC1	MAPK8	enzyme activity, inhibitor	–	4.938 µM, 18 h, unit not given, together with: GSH 10 mM pre-incubation	reference: vehicle	0.0389
N#Cc1cnc2sc(C(=O)O)cc2c1N1CCc2[nH]nc(C(=O)N[C@@H](CC(=O)NCCOCCN3CCOCC3)c3cccc(Br)c3)c2C1	IL1RL2	reporter gene (SEAP), inhibitor, HEK-Blue IL-36R reporter	HEK-Blue IL-36R cells	0.41 µM, 6 h, together with: IL36A 0.01 ng/mL	–	82.1%
N=C(N)c1ccc(N2CCCN(c3ccc(C(=N)N)cc3)C2=O)cc1	PRMT5	enzyme activity, inhibitor, radiometric	–	20 µM	–	59.3%
C[C@](C(=O)NC1CCOCC1)(c1cncnc1)N(C(=O)[C@H](F)Cl)c1ccc(OC(F)(F)Cl)cc1	ADAM17 (Homo sapiens, UniProt P78536)	enzyme activity, inhibitor	–	10 µM	–	102%
N=C(N)c1ccc(-c2ccc(-c3ccc(C(=N)N)o3)o2)o1	PRMT5	enzyme activity, inhibitor, radiometric	–	20 µM	–	108%
CN(Cc1cc(C2CC2)on1)C(=O)c1cccc(-c2ccc3c(c2)CCO3)c1	Acetyl-CoA synthetase (Cryptococcus neoformans, UniProt J9VFT1)	enzyme activity, inhibitor, coupled pyrophosphate	–	488 nM	–	106% and 94.1%

Excerpt of the above:
SMILES	target	test	system	setting	how to read	remaining activity
COC(=O)[C@@]1(C)C=C(C(=O)Nc2cccc(C(=O)Nc3ccc(Nc4nccc(-c5cccnc5)n4)c(C)c3)c2)C(=O)CC1	MAPK8	enzyme activity, inhibitor	–	4.938 µM, 18 h, unit not given, together with: GSH 10 mM pre-incubation	reference: vehicle	0.0389
